# Published values of several laboratories.
# Every numbered part comes from another study and shows a few of its results, in no order.

# Study 1 — technique: universal PBM; molecule type: double-stranded DNA, one strand shown; sample: in vitro; tested at: not given; direction: higher = stronger binding
# Target: Sal-like protein 4, full length isoform B (SALL4, Homo sapiens, UniProt Q9UJQ4-2, residues 1-616)
# Setting: 8-mer, flanks averaged, mean of replicates
# Construct (chain): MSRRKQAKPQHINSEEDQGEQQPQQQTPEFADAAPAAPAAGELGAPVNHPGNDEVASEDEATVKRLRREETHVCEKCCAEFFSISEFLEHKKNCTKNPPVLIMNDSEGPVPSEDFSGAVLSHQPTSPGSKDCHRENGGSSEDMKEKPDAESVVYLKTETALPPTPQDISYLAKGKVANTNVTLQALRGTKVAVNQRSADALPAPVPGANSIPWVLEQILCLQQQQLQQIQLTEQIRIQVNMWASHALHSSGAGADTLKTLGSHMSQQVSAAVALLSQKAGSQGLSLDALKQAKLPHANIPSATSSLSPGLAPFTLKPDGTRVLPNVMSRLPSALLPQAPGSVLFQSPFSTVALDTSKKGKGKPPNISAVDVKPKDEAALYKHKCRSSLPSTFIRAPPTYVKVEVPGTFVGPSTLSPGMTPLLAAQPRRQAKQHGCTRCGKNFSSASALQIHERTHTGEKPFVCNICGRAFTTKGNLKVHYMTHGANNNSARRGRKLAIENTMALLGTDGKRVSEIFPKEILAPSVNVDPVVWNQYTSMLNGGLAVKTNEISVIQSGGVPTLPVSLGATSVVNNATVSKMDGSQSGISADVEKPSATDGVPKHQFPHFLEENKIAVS
Sequence,E-score
CCAGGCAC,-0.107
ACATTCCT,0.064
ACATGAGA,0.191
GCCTTATA,0.133
ACCCCCCT,-0.405
AATAAGCC,0.175
TAATAAAA,0.43
CAAACTAA,0.154
CAATGTTC,-0.0452

# Study 2 — technique: RNA Bind-n-Seq; molecule type: RNA; sample: in vitro; tested at: 200 nM; setting: whole 134-nt RNA, ends assumed; with: 150 mM KCl; reference: input library; direction: higher = stronger binding
# Target: Fragile X messenger ribonucleoprotein 1, C-terminal low-complexity region (Fmr1, Mus musculus, UniProt P35922)
# Constant ends, left off below: GGGAGUUCUACAGUCCGACGAUC … UGGAAUUCUCGGGUGUCAAGG
Sequence,log2 enrichment
CAAGUCCUGUGCUACACAUCGUAUGUACCGAAUCGGAGGUUUUUUUGGUUUUUGGAAAGUAUUAUGUUACGCCGUUCGGAUCUGCACUUC,-0.916
AGUCCUGUGCUACACAUCGUAUGUACCGAAUCGGAAAAAAGGAAAAAAGGAAAAAAGGAAAGUAUUAUGUUACGCCGUUCGGAUCUGCAC,-0.947
GCAGGAAGUAAAAACAAAUGGAAAUGCUUCGGAUAGUGGCAGGGGUGGGGGUUGCUAAGGAAAAAGUGGGAUGGGAGUGGGUAAAGAGUU,0.0762
ACCAUGCAGGUGGGCAUCUUUGGGAAGUGGGACAAGGGGGGGAUAGGGAGGGGGGUAACACUUUGGGAACAGGUGGUCCCAGGUCGUUUC,0.686
UGGCCCUGGUGGCAUGCGGGGAGGAAGAGGUGGCCACAUGGAUCGUGGUGGUCCCGGUGGAAUGUUCAGAGGUGGCCGUGGUGGAGACAG,0.126
UGGGAGGUGGAUUUUGUUUAUUUUUUUAGCUCAUUUUCAGGGGUGGGAAUUUUUUUUUAAUAUGUGUCAUGAAUAAAGUUGUUUUUGAAA,0.107
CUUGACCCUCAACACCAACCAUGGGCAUAUCCUGGUGGAUUACUCCAAGAACCUGGUGACGGAGGACGUGAUGCGGAUGCUGGUGGACUU,-1.56
CGGGAGGUGGAUUUUGUUUAUUUUUUUAGCUCAUUUCCAGGGGUGGGAAUUUUUUUUUAAUAUGUGUCAUGAAUAAAGUUGUUUUUGAAA,0.402
GCAGGAAGUAAAAACAAAUGGAAAUGCUUCGGAUAGUGGCAGGGGUGGGGGUUGCUAAGGAAAGGGUGGGAUGGGAGUGGGUACAGAGUU,0.386

# Study 3 — technique: protein-binding microarray; molecule type: double-stranded DNA, one strand shown; sample: in vitro; tested at: 2200 nM top; setting: 60-bp whole probe; with: salmon DNA 0.4 mg/ml; reference: random background probes; direction: higher = stronger binding; constant ends, left off below: GCCTAGCAC … GTCTTGATTCGCTTGACGCTGCTG
# Target: Interferon regulatory factor 7, full length, phosphomimetic (IRF7, Homo sapiens, UniProt Q92985, residues 1-503, S471D/S472D/S475D/S476D/S477D/S483D/S484D/S487D)
# Chain of UniProt Q92985 (whole entry, unmodified, looked up): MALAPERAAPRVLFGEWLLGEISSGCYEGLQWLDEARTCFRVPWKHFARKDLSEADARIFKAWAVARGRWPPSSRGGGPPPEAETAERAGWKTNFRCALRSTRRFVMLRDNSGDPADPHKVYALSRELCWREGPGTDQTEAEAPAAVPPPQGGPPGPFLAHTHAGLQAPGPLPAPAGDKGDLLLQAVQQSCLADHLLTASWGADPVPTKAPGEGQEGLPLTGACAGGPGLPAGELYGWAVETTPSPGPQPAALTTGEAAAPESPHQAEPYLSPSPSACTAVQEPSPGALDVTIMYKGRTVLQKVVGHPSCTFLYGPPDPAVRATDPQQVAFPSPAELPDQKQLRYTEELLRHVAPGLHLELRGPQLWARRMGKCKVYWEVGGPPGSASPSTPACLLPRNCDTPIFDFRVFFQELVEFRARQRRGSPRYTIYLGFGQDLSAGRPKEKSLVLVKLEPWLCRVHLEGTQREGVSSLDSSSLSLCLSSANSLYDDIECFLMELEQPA
Sequence,fitted relative affinity [z-score]
TTAGGACTGCTTGTCCTTTAGTGCTAG,0.134
GACGGTTTACTTCTCCTGACGTGCTAG,1.92
GACGAACTGGGGACCGGAGACGTGCTA,-0.586
CTCTTTCTTTGCTTCACCCTGTGCTAG,2.81
TCACTTTCCAATTGTCCTACTGTGCTA,7.84
GACGGTTTCCTTCGCCTGACGTGCTAG,1.95
TTAGATATCGGTATCGGTTAGTGCTAG,0.728
TCAACTTTCTTTCAAATACTGTGCTAG,1.11
TCAAATGTCCTCCTCTCACTGTGCTAG,1.47
GGCGGTCTCCTTCTCCTGACGTGCTAG,0.139

# Mixed results
Substance,target,assay,system,conditions,how to read,endpoint,value
"PhoQ, residues 284 288 289 292 302 303 ALASRC","PhoP, residues 12 14 15 18 19 STWGI (Escherichia coli, UniProt P23836)","Sort-seq, refers to: YFP reporter",E. coli,"PhoQ-PhoP variant library, with: 10 µM Mg2+","reference: high Mg2+ state, higher = stronger signaling",fold induction,2.26

# For quick reference, copied from above (study 2):
Sequence,log2 enrichment
ACCAUGCAGGUGGGCAUCUUUGGGAAGUGGGACAAGGGGGGGAUAGGGAGGGGGGUAACACUUUGGGAACAGGUGGUCCCAGGUCGUUUC,0.686
UGGGAGGUGGAUUUUGUUUAUUUUUUUAGCUCAUUUUCAGGGGUGGGAAUUUUUUUUUAAUAUGUGUCAUGAAUAAAGUUGUUUUUGAAA,0.107
GCAGGAAGUAAAAACAAAUGGAAAUGCUUCGGAUAGUGGCAGGGGUGGGGGUUGCUAAGGAAAAAGUGGGAUGGGAGUGGGUAAAGAGUU,0.0762
UGGCCCUGGUGGCAUGCGGGGAGGAAGAGGUGGCCACAUGGAUCGUGGUGGUCCCGGUGGAAUGUUCAGAGGUGGCCGUGGUGGAGACAG,0.126
